Assay results of several laboratories.
A part holds a random share of what one study measured.
Sequence of UniProt P35626 (whole entry, looked up): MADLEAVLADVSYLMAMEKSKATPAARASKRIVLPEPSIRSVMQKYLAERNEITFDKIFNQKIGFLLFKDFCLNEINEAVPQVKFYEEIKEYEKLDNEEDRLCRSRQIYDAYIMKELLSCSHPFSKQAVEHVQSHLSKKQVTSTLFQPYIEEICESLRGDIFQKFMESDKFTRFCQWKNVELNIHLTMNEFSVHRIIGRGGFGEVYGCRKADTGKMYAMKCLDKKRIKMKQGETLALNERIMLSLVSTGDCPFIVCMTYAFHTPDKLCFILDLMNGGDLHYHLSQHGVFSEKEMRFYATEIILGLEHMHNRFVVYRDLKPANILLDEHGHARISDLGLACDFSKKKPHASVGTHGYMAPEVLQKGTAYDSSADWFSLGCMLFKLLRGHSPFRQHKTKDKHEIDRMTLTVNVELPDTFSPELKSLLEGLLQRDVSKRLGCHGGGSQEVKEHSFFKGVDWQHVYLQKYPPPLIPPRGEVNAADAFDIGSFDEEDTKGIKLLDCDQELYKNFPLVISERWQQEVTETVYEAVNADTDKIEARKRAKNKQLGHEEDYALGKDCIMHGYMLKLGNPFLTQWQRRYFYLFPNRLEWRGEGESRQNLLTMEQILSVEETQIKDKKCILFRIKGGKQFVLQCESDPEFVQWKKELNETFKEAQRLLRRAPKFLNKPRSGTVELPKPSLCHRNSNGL
Sequence of UniProt P11802 (whole entry, looked up): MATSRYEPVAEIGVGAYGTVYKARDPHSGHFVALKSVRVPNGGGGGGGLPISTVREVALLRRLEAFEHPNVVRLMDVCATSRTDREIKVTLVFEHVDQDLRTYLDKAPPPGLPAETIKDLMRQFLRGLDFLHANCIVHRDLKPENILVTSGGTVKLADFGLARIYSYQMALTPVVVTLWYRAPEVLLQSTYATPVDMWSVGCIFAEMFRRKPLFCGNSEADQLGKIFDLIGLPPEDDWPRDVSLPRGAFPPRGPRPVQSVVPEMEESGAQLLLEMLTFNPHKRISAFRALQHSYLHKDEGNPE
Sequence of UniProt O96013 (whole entry, looked up): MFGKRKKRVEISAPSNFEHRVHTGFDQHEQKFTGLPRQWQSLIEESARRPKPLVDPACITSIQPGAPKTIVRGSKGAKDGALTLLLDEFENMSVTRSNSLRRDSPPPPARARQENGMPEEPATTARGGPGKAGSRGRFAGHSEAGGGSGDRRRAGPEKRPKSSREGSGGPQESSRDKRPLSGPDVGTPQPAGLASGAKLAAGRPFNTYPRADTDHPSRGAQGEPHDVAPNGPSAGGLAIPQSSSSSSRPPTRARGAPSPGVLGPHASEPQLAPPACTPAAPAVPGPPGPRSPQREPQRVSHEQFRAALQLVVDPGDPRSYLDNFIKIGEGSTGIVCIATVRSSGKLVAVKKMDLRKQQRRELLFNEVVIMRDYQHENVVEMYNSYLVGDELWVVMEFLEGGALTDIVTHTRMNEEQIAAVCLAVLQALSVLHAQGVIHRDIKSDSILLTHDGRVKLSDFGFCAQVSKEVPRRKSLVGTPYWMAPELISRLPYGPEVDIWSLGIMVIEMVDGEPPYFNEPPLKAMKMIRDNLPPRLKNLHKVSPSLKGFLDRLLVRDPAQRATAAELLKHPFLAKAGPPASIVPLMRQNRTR
Sequence of UniProt Q9UIK4 (whole entry, looked up): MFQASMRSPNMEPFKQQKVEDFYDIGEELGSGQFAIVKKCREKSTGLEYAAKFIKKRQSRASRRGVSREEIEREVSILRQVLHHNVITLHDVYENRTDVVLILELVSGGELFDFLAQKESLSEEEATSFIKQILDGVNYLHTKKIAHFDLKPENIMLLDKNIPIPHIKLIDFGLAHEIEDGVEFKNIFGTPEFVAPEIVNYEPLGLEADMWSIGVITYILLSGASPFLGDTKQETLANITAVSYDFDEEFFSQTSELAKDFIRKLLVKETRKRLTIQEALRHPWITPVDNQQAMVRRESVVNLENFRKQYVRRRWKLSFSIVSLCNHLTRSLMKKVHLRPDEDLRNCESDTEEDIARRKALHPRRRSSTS
Sequence of UniProt Q9BVS4 (whole entry, looked up): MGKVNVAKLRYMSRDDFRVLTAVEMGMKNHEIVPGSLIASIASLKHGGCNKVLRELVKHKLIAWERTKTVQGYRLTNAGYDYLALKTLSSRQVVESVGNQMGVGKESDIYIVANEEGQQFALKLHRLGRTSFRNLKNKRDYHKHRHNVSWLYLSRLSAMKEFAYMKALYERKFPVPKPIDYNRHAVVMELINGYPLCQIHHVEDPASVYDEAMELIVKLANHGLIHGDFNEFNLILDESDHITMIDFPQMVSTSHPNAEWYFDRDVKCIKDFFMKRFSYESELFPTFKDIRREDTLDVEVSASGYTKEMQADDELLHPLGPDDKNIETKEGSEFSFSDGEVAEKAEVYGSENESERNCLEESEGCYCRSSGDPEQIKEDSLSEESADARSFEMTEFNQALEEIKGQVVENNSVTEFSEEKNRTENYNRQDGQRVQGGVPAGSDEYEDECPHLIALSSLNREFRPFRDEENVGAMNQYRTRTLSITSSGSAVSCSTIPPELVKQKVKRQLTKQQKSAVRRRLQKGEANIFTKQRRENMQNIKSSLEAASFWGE
Sequence of UniProt O14920 (whole entry, looked up): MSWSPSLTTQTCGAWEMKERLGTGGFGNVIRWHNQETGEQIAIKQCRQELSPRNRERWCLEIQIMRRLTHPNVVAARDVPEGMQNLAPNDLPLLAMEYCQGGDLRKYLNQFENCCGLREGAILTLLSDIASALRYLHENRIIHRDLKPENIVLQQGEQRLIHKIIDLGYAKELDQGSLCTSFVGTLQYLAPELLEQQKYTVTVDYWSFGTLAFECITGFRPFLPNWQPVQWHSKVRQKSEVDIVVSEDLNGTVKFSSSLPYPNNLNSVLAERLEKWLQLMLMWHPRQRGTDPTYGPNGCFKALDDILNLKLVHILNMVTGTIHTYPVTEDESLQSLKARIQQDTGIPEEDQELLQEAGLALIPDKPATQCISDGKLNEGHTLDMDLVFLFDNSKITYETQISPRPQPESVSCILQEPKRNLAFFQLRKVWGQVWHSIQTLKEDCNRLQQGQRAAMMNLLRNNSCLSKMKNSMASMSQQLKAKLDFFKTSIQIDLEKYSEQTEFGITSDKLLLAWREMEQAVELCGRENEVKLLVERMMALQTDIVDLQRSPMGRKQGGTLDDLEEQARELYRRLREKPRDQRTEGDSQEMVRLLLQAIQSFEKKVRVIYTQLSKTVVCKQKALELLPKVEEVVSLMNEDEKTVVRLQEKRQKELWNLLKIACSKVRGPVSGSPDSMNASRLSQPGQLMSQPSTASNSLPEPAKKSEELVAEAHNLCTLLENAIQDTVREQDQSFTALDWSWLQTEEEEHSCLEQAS
Sequence of UniProt P51955 (whole entry, looked up): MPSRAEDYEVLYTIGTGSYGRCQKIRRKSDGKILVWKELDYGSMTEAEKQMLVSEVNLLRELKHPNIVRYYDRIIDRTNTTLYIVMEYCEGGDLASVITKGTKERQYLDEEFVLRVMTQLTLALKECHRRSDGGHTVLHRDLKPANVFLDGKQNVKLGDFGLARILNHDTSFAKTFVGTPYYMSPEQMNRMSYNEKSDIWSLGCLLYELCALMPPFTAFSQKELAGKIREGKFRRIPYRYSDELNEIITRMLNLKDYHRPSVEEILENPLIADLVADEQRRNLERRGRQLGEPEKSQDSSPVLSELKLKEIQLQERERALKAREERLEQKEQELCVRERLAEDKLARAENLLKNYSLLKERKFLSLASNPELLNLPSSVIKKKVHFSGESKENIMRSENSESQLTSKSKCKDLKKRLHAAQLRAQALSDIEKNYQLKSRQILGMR
Sequence of UniProt P15735 (whole entry, looked up): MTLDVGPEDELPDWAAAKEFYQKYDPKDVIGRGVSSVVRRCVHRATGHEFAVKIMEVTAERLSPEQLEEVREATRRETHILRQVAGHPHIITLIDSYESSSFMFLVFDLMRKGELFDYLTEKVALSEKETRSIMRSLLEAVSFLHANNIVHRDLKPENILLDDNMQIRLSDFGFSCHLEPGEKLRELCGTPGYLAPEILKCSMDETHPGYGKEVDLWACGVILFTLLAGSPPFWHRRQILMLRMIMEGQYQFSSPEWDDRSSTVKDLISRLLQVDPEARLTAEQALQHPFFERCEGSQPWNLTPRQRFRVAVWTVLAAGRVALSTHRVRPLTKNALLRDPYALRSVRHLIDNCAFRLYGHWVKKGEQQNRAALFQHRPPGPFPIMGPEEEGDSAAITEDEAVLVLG

Sample 1 — read-out: enzyme activity; mode: inhibitor; concentration: 0.5 µM; relative to: control
SMILES: CC(=O)O/N=C1/C(c2c(O)[nH]c3cc(Br)ccc23)=Nc2ccccc21
target | remaining activity
NEK2 (Homo sapiens, UniProt P51955) | 73.9%
MAP3K3 (Homo sapiens, UniProt Q99759) | 97.4%
Protein kinase C beta type, isoform beta-I (PRKCB, Homo sapiens, UniProt P05771) | 105%
IKBKB (Homo sapiens, UniProt O14920) | 92.4%
DAPK2 (Homo sapiens, UniProt Q9UIK4) | 68.7%
TGFBR1 (Homo sapiens, UniProt P36897) | 101%
IKBKE (Homo sapiens, UniProt Q14164) | 81.4%
Tyrosine-protein kinase Lyn, isoform B (LYN, Homo sapiens, UniProt P07948) | 52.4%
STK11 (Homo sapiens, UniProt Q15831) | 73.6%
STK10 (Homo sapiens, UniProt O94804) | 99.3%
MAPK9 (Homo sapiens, UniProt P45984) | 90.5%
DAPK1 (Homo sapiens, UniProt P53355) | 86.8%
STK39 (Homo sapiens, UniProt Q9UEW8) | 105%
OXSR1 (Homo sapiens, UniProt O95747) | 112%
CAMKK2 (Homo sapiens, UniProt Q96RR4) | 102%
Cyclin-dependent kinase 5, with p25 (CDK5, Homo sapiens, UniProt Q00535) | 51.4%
cGMP-dependent protein kinase 1, isoform beta (PRKG1, Homo sapiens, UniProt Q13976) | 86.1%
CAMK2D (Homo sapiens, UniProt Q13557) | 53.8%
GRK3 (Homo sapiens, UniProt P35626) | 95.7%
PRKACA (Homo sapiens, UniProt P17612) | 109%
PRKCA (Homo sapiens, UniProt P17252) | 105%
CHEK2 (Homo sapiens, UniProt O96017) | 75.8%
Cyclin-dependent kinase 4, with cyclin D1 (CDK4, Homo sapiens, UniProt P11802) | 73.3%
TGFBR2 (Homo sapiens, UniProt P37173) | 132%

Sample 2 — cell line: 1205Lu melanoma
Structure (SMILES) | IC50
CNCCCC1c2ccccc2C=Cc2ccccc21 | 18.7 µM
CN(C)CCC=C1c2ccccc2CCc2ccccc21 | 36.3 µM
CNCCCN1c2ccccc2CCc2ccccc21 | 16.8 µM
CCCCCCCCNC(C)C(O)c1ccc(SC(C)C)cc1 (stereo not drawn) | 5.3 µM
CN(C)CC/C=C1/c2ccccc2Sc2ccc(Cl)cc21 | 8.9 µM
CC(CN1c2ccccc2Sc2ccccc21)N(C)C (stereo not drawn) | 33.5 µM
CC(C)(C)c1ccc(C(O)CCCN2CCC(C(O)(c3ccccc3)c3ccccc3)CC2)cc1 (stereo not drawn) | 3.9 µM
CCOC(=O)C1=C(COCCN)NC(C)=C(C(=O)OC)C1c1ccccc1Cl (stereo not drawn) | 12.8 µM
c1cc(CN2CCCCC2)cc(OCCCNc2nc3ccccc3s2)c1 | 28 µM
CC(NCCC(c1ccccc1)c1ccccc1)c1ccccc1 (stereo not drawn) | 9.5 µM
CN(C)CCCN1c2ccccc2Sc2ccc(Cl)cc21 | 15 µM
CCN(CC)CCCC(C)Nc1c2ccc(Cl)cc2nc2ccc(OC)cc12 (stereo not drawn) | 3.8 µM
COCCCC/C(=N\OCCN)c1ccc(C(F)(F)F)cc1 | 21.4 µM

Sample 3 — read-out: cell-free assay; technique: competition with immobilised ligand; concentration: 1 µM
Structure (SMILES): C[C@@]1(Cc2ccc(C#N)cc2)C(=O)N(c2cc(Cl)cc(Cl)c2)c2ncc(C(=O)NC3(c4nc(C5CCC5)no4)CC3)n21
target | remaining binding
LCK (Homo sapiens, UniProt P06239) | 100%
Tyrosine-protein kinase ABL1, phosphorylated (ABL1, Homo sapiens, UniProt P00519, F317L) | 86%
GRK7 (Homo sapiens, UniProt Q8WTQ7) | 100%
FYN (Homo sapiens, UniProt P06241) | 89%
Tyrosine-protein kinase ABL1, phosphorylated (ABL1, Homo sapiens, UniProt P00519, T315I) | 100%
AKT3 (Homo sapiens, UniProt Q9Y243) | 100%
PRKCH (Homo sapiens, UniProt P24723) | 100%
PHKG2 (Homo sapiens, UniProt P15735) | 100%
PAK3 (Homo sapiens, UniProt O75914) | 100%
RIOK2 (Homo sapiens, UniProt Q9BVS4) | 100%
PAK4 (Homo sapiens, UniProt O96013) | 98%
BTK (Homo sapiens, UniProt Q06187) | 100%
MAP3K10 (Homo sapiens, UniProt Q02779) | 100%
HUNK (Homo sapiens, UniProt P57058) | 100%
NEK1 (Homo sapiens, UniProt Q96PY6) | 48%
GRK3 (Homo sapiens, UniProt P35626) | 100%
Ribosomal protein S6 kinase alpha-1, C-terminal kinase domain (RPS6KA1, Homo sapiens, UniProt Q15418) | 100%
Cyclin-dependent kinase 4, with cyclin D1 (CDK4, Homo sapiens, UniProt P11802) | 100%
RET (Homo sapiens, UniProt P07949) | 100%
MAST1 (Homo sapiens, UniProt Q9Y2H9) | 100%
Ribosomal protein S6 kinase alpha-5, N-terminal kinase domain (RPS6KA5, Homo sapiens, UniProt O75582) | 100%

Sample 4 — read-out: enzyme activity; mode: inhibitor; technique: ADP-Glo
SMILES: CN(C(=O)c1ccn2ncc(-c3ccc(C(N)=O)cc3)c2c1)c1ccc(C#N)cn1
Target: Phosphatidylinositol 4-kinase (Cryptosporidium parvum, UniProt Q5CVD3)
Construct (Q5CVD3 1-1114): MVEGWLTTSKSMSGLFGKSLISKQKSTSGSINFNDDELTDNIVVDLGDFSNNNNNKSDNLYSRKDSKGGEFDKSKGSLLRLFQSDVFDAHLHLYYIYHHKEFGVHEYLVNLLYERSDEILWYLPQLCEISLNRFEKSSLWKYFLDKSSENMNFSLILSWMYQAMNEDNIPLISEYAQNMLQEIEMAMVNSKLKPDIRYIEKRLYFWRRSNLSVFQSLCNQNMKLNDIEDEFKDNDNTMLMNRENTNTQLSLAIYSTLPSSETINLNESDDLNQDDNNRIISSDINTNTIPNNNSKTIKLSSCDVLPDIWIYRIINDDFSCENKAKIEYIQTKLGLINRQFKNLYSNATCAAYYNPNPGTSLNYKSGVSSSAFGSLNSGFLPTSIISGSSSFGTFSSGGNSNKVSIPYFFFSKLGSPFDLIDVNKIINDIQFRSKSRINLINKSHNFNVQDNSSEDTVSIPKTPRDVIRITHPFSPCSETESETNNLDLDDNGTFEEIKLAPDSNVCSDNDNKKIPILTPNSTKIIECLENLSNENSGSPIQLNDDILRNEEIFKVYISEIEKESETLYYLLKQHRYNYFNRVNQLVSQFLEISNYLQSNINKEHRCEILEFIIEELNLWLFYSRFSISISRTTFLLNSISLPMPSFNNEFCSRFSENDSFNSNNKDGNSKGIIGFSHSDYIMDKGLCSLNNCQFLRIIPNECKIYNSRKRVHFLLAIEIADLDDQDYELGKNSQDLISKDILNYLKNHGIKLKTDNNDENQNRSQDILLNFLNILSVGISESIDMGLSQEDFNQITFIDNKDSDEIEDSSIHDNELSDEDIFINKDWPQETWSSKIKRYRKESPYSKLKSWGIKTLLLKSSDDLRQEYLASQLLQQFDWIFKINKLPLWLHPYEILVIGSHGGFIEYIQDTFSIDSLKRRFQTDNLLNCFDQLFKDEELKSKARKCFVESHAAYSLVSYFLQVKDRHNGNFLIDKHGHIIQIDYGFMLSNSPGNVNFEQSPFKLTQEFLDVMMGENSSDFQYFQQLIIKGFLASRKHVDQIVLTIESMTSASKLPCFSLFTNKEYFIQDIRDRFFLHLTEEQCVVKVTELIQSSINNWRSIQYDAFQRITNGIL
concentration | inhibition [%]
2.74e-05 µM | 64.8
0.000247 µM | 94.6
3.05e-06 µM | 17.3
0.002222 µM | 99.4
0.000741 µM | 98.8

Repeated from above (sample 1):
target | remaining activity
TGFBR1 (Homo sapiens, UniProt P36897) | 101%
TGFBR2 (Homo sapiens, UniProt P37173) | 132%
PRKACA (Homo sapiens, UniProt P17612) | 109%
STK11 (Homo sapiens, UniProt Q15831) | 73.6%
Cyclin-dependent kinase 4, with cyclin D1 (CDK4, Homo sapiens, UniProt P11802) | 73.3%
STK10 (Homo sapiens, UniProt O94804) | 99.3%
MAP3K3 (Homo sapiens, UniProt Q99759) | 97.4%
Cyclin-dependent kinase 5, with p25 (CDK5, Homo sapiens, UniProt Q00535) | 51.4%
